# Measurements from different studies.
# Every numbered part comes from another study and shows a few of its results, in no order.
# Sequence of UniProt P25024 (whole entry, looked up): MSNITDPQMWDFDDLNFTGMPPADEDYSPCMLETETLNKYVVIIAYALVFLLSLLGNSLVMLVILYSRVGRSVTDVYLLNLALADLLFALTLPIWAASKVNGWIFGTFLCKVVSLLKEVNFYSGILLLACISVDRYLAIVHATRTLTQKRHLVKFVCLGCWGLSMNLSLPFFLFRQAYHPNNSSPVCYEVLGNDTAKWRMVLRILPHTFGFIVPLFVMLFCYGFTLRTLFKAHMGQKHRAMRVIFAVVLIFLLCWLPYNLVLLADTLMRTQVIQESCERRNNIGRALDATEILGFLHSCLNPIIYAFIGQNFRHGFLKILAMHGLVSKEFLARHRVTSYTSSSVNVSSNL
# Sequence of UniProt P25105 (whole entry, looked up): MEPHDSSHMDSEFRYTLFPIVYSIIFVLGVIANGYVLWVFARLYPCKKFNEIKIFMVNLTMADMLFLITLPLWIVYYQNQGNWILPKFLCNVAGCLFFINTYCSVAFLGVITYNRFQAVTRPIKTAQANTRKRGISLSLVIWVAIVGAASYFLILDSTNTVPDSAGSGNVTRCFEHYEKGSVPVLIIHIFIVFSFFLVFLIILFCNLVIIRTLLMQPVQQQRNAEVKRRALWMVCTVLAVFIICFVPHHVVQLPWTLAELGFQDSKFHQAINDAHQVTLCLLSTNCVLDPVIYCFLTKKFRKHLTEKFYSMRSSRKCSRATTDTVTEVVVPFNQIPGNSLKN
# Sequence of UniProt P51957 (whole entry, looked up): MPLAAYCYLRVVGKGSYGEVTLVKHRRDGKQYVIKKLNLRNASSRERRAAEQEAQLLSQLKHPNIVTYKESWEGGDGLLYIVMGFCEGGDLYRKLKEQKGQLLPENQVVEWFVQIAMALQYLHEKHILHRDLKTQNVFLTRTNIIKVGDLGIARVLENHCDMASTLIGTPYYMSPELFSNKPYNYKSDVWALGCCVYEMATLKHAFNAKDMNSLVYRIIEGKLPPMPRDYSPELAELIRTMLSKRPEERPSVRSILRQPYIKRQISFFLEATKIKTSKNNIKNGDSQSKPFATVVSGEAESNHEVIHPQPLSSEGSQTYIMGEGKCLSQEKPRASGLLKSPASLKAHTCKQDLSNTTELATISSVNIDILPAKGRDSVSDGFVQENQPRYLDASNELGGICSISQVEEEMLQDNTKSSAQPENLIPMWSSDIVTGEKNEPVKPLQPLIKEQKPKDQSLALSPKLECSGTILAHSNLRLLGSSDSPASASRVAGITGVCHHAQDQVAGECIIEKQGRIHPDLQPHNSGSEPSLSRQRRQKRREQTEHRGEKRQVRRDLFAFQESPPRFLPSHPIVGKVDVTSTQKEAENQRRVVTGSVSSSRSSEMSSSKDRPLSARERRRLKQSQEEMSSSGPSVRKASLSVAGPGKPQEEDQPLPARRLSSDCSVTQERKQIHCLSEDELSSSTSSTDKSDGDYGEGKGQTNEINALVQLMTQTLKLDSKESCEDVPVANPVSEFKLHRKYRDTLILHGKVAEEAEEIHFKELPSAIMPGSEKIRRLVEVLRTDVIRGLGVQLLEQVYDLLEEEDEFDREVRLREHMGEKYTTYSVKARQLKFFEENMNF
# Sequence of UniProt O00270 (whole entry, looked up): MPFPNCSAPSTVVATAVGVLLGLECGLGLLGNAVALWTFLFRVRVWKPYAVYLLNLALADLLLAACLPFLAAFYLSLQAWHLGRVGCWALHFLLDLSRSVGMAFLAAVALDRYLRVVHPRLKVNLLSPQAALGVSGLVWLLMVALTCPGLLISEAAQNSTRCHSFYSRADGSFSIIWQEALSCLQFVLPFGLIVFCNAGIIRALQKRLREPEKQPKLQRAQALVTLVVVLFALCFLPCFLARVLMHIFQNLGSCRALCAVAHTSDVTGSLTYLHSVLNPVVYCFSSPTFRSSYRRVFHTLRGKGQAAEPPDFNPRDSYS
# Sequence of UniProt Q16832 (whole entry, looked up): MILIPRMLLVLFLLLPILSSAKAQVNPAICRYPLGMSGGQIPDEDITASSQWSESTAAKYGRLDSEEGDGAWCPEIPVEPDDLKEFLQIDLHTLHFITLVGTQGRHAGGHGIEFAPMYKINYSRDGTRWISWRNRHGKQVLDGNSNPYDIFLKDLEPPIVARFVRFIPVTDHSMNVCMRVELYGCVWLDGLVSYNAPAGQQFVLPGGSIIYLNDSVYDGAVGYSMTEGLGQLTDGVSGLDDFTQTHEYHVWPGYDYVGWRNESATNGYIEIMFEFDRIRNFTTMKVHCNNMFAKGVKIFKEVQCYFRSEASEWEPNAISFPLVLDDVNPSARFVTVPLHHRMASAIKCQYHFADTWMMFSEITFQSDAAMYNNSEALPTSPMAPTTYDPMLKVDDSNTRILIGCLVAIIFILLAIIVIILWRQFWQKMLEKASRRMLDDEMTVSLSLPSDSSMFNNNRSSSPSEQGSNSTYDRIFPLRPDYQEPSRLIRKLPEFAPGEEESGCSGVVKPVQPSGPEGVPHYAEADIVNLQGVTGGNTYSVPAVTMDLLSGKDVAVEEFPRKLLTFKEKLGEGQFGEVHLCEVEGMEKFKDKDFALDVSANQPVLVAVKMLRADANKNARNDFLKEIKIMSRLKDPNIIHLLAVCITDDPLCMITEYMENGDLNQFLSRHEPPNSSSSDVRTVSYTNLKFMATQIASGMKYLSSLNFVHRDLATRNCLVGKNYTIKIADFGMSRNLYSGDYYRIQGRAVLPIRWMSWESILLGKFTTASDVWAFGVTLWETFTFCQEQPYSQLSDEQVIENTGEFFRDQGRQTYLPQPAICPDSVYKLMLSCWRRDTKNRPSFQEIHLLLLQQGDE
# Sequence of UniProt P51817 (whole entry, looked up): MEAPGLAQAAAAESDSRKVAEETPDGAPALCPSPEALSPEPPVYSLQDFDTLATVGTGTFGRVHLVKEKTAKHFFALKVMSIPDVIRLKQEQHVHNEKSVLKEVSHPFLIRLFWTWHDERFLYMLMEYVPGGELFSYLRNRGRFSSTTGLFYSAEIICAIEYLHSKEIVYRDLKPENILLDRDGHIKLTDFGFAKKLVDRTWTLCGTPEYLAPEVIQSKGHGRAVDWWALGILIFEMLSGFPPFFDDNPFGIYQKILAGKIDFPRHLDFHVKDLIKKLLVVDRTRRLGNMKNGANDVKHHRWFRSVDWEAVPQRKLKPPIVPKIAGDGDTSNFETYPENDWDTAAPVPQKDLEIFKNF

# Set 1 — species: human; medium: microsomes or S9; concentration: 2 µM; time: 0.5 h
Structure (SMILES),remaining compound [%]
CC(C)(C)OC(=O)N1CCCC1C(=O)NC(CC1=NOC(C(N)=O)C1)c1ccccc1 (stereo not shown),95.6
CC(C)(C)NS(=O)(=O)c1ccc(NC(=O)C2c3ccccc3Oc3ccccc32)cc1,> 100
O=C(CCCc1ccc2c(c1)-c1ccccc1C2)NC1CCCNC1=O (stereo not shown),63.1
CC1(C)CC(S(=O)(=O)CC2(C)CC(C3CCCCC3)=NO2)=NO1 (stereo not shown),4.95
COc1ccc(NC(=O)N2CCC3(C2)C(=O)Nc2ccccc23)c(OC)c1 (stereo not shown),77.1
COc1ccc(-c2ccnc3cc(C4CCCCC4)nn23)cc1OC1CCCC1,95

# Set 2 — observed: β-arrestin recruitment; action: agonist; technique: PRESTO-Tango; concentration: 10 µM; relative to: untreated
# SMILES: N=C(N)NC(=O)c1cnn(-c2cccc3ncccc23)c1C1CC1
target,fold over basal
"C-X-C chemokine receptor type 1 (CXCR1, Homo sapiens, UniProt P25024)",1.2
"12-(S)-hydroxy-5,8,10,14-eicosatetraenoic acid receptor (GPR31, Homo sapiens, UniProt O00270)",1.05
"Neuropeptides B/W receptor type 1 (NPBWR1, Homo sapiens, UniProt P48145)",1.02
"Glucose-dependent insulinotropic receptor (GPR119, Homo sapiens, UniProt Q8TDV5)",0.74
"Platelet-activating factor receptor (PTAFR, Homo sapiens, UniProt P25105)",0.75
"GPR101 (Homo sapiens, UniProt Q96P66)",1.11
"Hydroxycarboxylic acid receptor 3 (HCAR3, Homo sapiens, UniProt P49019)",1.48 fold

# Set 3 — observed: enzyme activity; action: inhibitor; concentration: 10 µM
# Target: Calcium/calmodulin-dependent protein kinase type II subunit alpha (CAMK2A, Homo sapiens, UniProt Q9UQM7)
# Sequence of UniProt Q9UQM7 (whole entry, looked up): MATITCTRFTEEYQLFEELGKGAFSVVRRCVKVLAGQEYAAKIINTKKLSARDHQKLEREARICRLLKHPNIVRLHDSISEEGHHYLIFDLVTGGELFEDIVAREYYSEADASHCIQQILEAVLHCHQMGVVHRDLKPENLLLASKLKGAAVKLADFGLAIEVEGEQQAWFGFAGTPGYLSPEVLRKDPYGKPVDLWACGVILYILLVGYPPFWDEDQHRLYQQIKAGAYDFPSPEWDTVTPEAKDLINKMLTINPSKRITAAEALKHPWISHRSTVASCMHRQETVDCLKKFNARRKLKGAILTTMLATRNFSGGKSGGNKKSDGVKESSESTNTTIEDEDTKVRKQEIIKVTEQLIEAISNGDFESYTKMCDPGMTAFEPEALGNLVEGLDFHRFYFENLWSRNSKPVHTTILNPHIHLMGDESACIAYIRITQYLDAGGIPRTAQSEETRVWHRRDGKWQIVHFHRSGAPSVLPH
Compound,inhibition [%]
Fc1ccc([C@@H]2CCNC[C@H]2COc2ccc3c(c2)OCO3)cc1,3
COc1nccnc1NS(=O)(=O)c1ccc(N)cc1,0
COc1ccc(-c2oc3cc(OC)c(OC)c(O)c3c(=O)c2OC)cc1OC,-8
N[C@H]1[C@H](O[C@H]2[C@H](O)[C@@H](N)[C@H](O[C@H]3[C@H](O)[C@@H](N)[C@H](O[C@@H]([C@H](O)[C@@H](N)C=O)[C@H](O)CO)O[C@@H]3CO)O[C@@H]2CO)O[C@H](CO)[C@@H](O)[C@@H]1O,-1
C[N+](C)(CC(=O)Nc1ccccc1)CC(=O)Nc1ccccc1,0
COc1cc(C(=O)NCc2ccc(OCCN(C)C)cc2)cc(OC)c1OC,6
Cc1[nH]c(=O)c(C#N)cc1-c1ccncc1,-12
CN1CCN2c3ncccc3Cc3ccccc3C2C1 (stereo not shown),-2
O=C(O)/C=C/C=C/c1ccccc1,-1
COc1cc2oc3cc(O)c(OC)c(CC=C(C)C)c3c(=O)c2c(O)c1CC=C(C)C,-3
O=c1c(O)c(-c2ccc(O)cc2O)oc2cc(O)cc(O)c12,84

# Set 4 — observed: enzyme activity; action: inhibitor; concentration: 0.5 µM; relative to: control
# Target: Mitogen-activated protein kinase kinase kinase kinase 4 (MAP4K4, Homo sapiens, UniProt O95819)
# Sequence of UniProt O95819 (whole entry, looked up): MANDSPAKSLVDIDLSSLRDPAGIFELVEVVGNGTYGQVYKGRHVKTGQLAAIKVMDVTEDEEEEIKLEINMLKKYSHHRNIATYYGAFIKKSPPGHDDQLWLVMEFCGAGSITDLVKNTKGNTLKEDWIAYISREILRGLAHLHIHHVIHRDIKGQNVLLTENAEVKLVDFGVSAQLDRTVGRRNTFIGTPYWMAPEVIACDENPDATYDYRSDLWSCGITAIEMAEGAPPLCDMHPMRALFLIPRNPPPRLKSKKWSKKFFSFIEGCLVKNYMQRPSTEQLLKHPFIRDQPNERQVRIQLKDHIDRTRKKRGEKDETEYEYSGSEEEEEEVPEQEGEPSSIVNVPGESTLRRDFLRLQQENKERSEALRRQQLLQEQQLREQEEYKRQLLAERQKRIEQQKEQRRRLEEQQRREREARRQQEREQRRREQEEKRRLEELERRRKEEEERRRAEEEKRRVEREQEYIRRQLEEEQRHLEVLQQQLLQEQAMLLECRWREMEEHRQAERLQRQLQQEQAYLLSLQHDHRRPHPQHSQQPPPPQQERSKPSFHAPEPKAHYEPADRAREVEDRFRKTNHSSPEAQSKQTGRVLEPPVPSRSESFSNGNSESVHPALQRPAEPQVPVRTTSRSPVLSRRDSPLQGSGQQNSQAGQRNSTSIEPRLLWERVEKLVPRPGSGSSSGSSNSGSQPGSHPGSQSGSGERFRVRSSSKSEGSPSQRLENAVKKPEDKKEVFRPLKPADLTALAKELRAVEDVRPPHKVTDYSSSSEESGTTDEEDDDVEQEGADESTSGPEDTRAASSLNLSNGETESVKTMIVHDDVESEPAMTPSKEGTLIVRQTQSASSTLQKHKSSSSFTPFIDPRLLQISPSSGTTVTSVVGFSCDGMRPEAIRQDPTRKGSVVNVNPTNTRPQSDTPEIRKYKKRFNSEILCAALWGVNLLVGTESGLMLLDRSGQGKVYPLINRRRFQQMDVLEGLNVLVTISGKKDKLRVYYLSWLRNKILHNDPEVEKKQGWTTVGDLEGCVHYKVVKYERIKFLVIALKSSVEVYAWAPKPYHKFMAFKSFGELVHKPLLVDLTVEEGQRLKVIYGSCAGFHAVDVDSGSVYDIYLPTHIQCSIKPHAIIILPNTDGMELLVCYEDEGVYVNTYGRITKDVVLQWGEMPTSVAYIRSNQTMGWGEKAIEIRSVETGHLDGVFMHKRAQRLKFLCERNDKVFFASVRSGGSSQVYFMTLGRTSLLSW
SMILES,remaining activity
c1ccc(-c2cnc(Nc3ccc(OCCN4CCCC4)cc3)s2)cc1,35.5%
COc1cc2ncnc(Nc3cccc(Cl)c3)c2cc1OC,68.1%
CCN(CC)C(=O)c1ccc(Nc2nc(OCC3CCCCC3)c3[nH]cnc3n2)cc1,85.9%
CCOc1nc(NC(=O)Cc2cc(OC)ccc2OC)cc(N)c1C#N,94.6%
C[C@@H]1CCN(C(=O)CC#N)C[C@@H]1N(C)c1ncnc2[nH]ccc12,101%
Nc1cccc(-c2cc3c(Oc4cccc(O)c4)ncnc3[nH]2)c1,12.5%
CCN(CC)CCNC(=O)c1c(C)[nH]c(/C=C2\C(=O)Nc3ccc(F)cc32)c1C,12.4%
Cc1cc2ncc(-c3ccccc3)nc2cc1C,85%
O=C1c2ccccc2-c2n[nH]c3cccc1c23,64%
N#Cc1c(NC(=O)c2cccc3ccccc23)sc2c1CCCC2,88.9%
CCN(CC)CCNC(=O)c1c(C)[nH]c(/C=C2\C(=O)Nc3ccc(Cl)cc32)c1C,4.33%
COc1cc2ncnc(Nc3ccc(O)c(Br)c3)c2cc1OC,59.3%
O=C(NC(NC(=S)Nc1ccc(F)c([N+](=O)[O-])c1)C(Cl)(Cl)Cl)C(c1ccccc1)c1ccccc1 (stereo not shown),92.7%
c1ccc(-c2[nH]ncc2-c2ccnc3ccccc23)nc1,48.3%
Cn1nc2c3c(cccc31)C(=O)c1ccccc1-2,85.1%
CN(C)C[C@H]1CCn2c(c(C3=C(c4cn(C)c5ccccc45)C(=O)NC3=O)c3ccccc32)C1,82.5%
O=C(Nc1cccc(Nc2nccc(Nc3cccc(C(F)(F)F)c3)n2)c1)C1CC1,92.4%
Cc1cn(-c2cc(NC(=O)c3ccc(C)c(Nc4nccc(-c5cccnc5)n4)c3)cc(C(F)(F)F)c2)cn1,106%
CN([C@@H](Cc1ccc(OS(=O)(=O)c2cccc3cnccc23)cc1)C(=O)N1CCN(c2ccccc2)CC1)S(=O)(=O)c1cccc2cnccc12,94.8%
O=C1C(Cl)=C(N2C(=O)CCC2=O)C(=O)c2ccccc21,93.7%
O=c1cc(-c2cccc3c2Sc2ccccc2S3)oc(N2CCOCC2)c1,93.2%
Cc1nc2cc3nc(-c4cccs4)cnc3cc2n1C,84.5%
Ic1cccc(CSc2nnc(-c3ccncc3)o2)c1,97.4%
COc1cc2c(cc1OC)-c1[nH]nc(Nc3cccc(F)c3)c1C2,55.5%

# Set 5 — observed: cell-free assay; technique: competition with immobilised ligand; concentration: 1 µM
# Compound: Cc1cc(-n2nc(Cc3cc(F)cc(C(F)(F)F)c3)nc2C)ccc1C(N)=O
target,remaining binding
"Discoidin domain-containing receptor 2 (DDR2, Homo sapiens, UniProt Q16832)",100%
"Receptor-type tyrosine-protein kinase FLT3 (FLT3, Homo sapiens, UniProt P36888, D835Y)",100%
"Ephrin type-A receptor 1 (EPHA1, Homo sapiens, UniProt P21709)",100%
"Tyrosine-protein kinase Blk (BLK, Homo sapiens, UniProt P51451)",100%
"cAMP-dependent protein kinase catalytic subunit PRKX (PRKX, Homo sapiens, UniProt P51817)",100%
"Serine/threonine-protein kinase WNK4 (WNK4, Homo sapiens, UniProt Q96J92)",100%
"Serine/threonine-protein kinase Nek4 (NEK4, Homo sapiens, UniProt P51957)",100%

# A few entries again (set 1):
Structure (SMILES),remaining compound [%]
CC(C)(C)OC(=O)N1CCCC1C(=O)NC(CC1=NOC(C(N)=O)C1)c1ccccc1 (stereo not shown),95.6
CC(C)(C)NS(=O)(=O)c1ccc(NC(=O)C2c3ccccc3Oc3ccccc32)cc1,> 100
O=C(CCCc1ccc2c(c1)-c1ccccc1C2)NC1CCCNC1=O (stereo not shown),63.1
CC1(C)CC(S(=O)(=O)CC2(C)CC(C3CCCCC3)=NO2)=NO1 (stereo not shown),4.95
COc1ccc(NC(=O)N2CCC3(C2)C(=O)Nc2ccccc23)c(OC)c1 (stereo not shown),77.1
COc1ccc(-c2ccnc3cc(C4CCCCC4)nn23)cc1OC1CCCC1,95
